# Experimental data from different studies.
# Numbered parts are unrelated; each lists some results of a single study. Positions count from the first letter of the parent shown.

# Study 1
# Target: CCND1, cyclin fold, Cln2 fusion (human)
# Technique: yeast growth competition, sequencing
# Medium: yeast
# Setting: strong parent motif
# Reference: not given
# Reading: higher = stronger binding
# Starting sequence: INSM1 docking peptide (human); PKAIRKLHFEDEV; partner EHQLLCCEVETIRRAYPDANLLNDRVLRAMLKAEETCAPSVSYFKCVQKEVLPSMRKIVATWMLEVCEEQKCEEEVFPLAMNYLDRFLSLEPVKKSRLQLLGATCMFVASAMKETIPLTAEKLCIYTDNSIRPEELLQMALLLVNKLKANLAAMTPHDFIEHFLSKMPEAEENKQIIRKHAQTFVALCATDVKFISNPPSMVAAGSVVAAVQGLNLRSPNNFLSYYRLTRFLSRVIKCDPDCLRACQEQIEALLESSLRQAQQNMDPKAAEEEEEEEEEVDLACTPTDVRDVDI
Substitution,normalised enrichment score
H8M,5.34
I4E,0.599
A3M,0.397
K2Q,3.68
K6Y,2.95
I4C,5.33
L7N,0.0791
F9N,0.0208
F9G,-0.167
I4R,4.63
A3D,-0.161
L7F,-0.015
K6C,4.26
D11M,3.11
E10V,2.34
K2A,3.32
R5C,1.9
K2E,1.73

# Study 2
# Target: Prothrombin, mature alpha-thrombin (F2, Homo sapiens, UniProt P00734)
# Technique: aptamer microarray, sandwich
# Form: DNA with 2'F-ANA
# Medium: in vitro
# Concentration: 200 nM
# Setting: whole 15-mer aptamer, many near background
# Added: Cy3 exosite-II aptamer, 400 nM
# Reading: higher = stronger binding
# Sequence: GGTTGGTGTGGTTGG
Modification,mean fluorescence intensity
2'F-ANA at 1 2 3 5 6 9,66.7 a.u.
2'F-ANA at 2 3 5 13 14 15,49.4 a.u.
2'F-ANA at 1 5 7 8 10,50 a.u.
2'F-ANA at 1 2 3 5 6 7 8 10 12 14,259 a.u.
2'F-ANA at 1 3 6 8 12 13,499 a.u.
2'F-ANA at 3 4 5 6 7 8 9 11 13 15,62.6 a.u.
2'F-ANA at 5 6 9 10 12 13 14,56.7 a.u.
2'F-ANA at 4 5 8 11 12,130 a.u.
2'F-ANA at 2 3 5 6 13 14,53.9 a.u.
2'F-ANA at 3 6 7 9 10,468 a.u.
2'F-ANA at 1 2 3 5 7 8 9 11 12 13 14 15,52.2 a.u.
2'F-ANA at 1 2 4 5 7 8 10 11 15,45.5 a.u.
2'F-ANA at 1 2 3 7 9 10,65.8 a.u.
2'F-ANA at 1 6 8 9 10 11 13 15,53.9 a.u.
2'F-ANA at 1 2 3 4 5 8 10 12 13,54.7 a.u.
2'F-ANA at 1 2 9 10 11 12 13 14 15,49.9 a.u.
2'F-ANA at 2 3 12 13 14,486 a.u.
2'F-ANA at 7 14,289 a.u.
2'F-ANA at 2 3 6 7 9 10,292 a.u.
2'F-ANA at 5 6 10 12 13 14,45.7 a.u.
2'F-ANA at 5 14 15,43.3 a.u.
2'F-ANA at 1 2 4 5 6 13,47.4 a.u.

# Study 3
# Target: RING finger protein unkempt homolog, zinc fingers 1-6, GST-SBP tag (UNK, Homo sapiens, UniProt Q9C0B0, residues 30-357)
# Technique: RNA Bind-n-Seq
# Form: RNA
# Medium: in vitro
# Concentration: not given
# Setting: RNA with constant flanks, ends assumed
# Reference: input RNA pool
# Reading: higher = stronger binding
# Target sequence (chain): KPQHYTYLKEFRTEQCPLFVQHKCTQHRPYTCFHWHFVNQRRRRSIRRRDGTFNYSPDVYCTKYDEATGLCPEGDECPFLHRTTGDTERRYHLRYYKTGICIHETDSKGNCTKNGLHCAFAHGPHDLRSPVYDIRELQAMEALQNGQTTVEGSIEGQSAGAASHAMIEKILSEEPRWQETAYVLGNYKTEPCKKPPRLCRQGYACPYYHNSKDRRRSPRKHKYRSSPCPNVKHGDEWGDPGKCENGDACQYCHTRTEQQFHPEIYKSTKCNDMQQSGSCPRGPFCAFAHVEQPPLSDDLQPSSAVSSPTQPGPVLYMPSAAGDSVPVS
Sequence,bound/input enrichment
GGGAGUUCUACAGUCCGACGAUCGACUUGCUUCUGCAGGCUUGUCCAUUUGGUACUUUAUUAGAUGCCAACUUACAGAAUUCAUCCGAUAAUACCAAUUUUGCAUCUGUGACUCAGCCACAGAAACAGCCAGCUUGGAAAACUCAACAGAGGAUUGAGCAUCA,0.109 ratio
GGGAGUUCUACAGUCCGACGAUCAGUCCAUGUUAAGUUUCAUUUAAAAGAUGCAUUUAUAUUUUGUUCUGUAAUAUUCUACUGCCGGUGAAAUCUUCAAAAAUCAAGAGACUGGGUAGUUAAGAAUAUAUGAAUGACUAAUAUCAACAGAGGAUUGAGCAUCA,0.22 ratio
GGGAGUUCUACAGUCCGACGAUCAGGUUACUGAUGCAUCACAUCAGAGAUUGUUUACCAGAGUUGAAAACAAGAAUAAAUGUUCCCGCUGCUCAGUAUCAGUCUCUUCUAAAUAGCUACGGUGAACCCGUGGAUGAUAAAAGUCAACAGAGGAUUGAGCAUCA,0.0995 ratio
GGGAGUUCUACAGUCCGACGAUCUGGUAUGGCCUUGGGCAGACUUACGAAAUCCUUAAAAUGCCAUUUUAUUGCCUUUAUUAUUACCGACGGGCCCACCAGCUUCGUCCCAAUGAUUCUCGCAUGCUGGUUGCCUUAGGAGAACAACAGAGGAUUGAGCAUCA,0.197 ratio
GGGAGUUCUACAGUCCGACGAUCGCUUUUCAAGCCAAGGAUGUGGAAGGAUCUACUUCUCCUCAAAUAGGAGAUAAGGUUGAAUUCCGUAUUAGUGACAAACAGAGGCCUGGACAGCAGGUUGCAACUUGUGUGCGACUUUUACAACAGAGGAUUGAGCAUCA,0.181 ratio
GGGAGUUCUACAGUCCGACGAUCGAACAUAAAGCUGAGAAAGUCCCAGCAGUAGCCAACUACAUUAUGAAAAUACACAAUUUUACCCGCAAAUGCCUCUACUGUAAUCGCUAUUUACCCACAGAUACUCUGCUCAACCAUAUGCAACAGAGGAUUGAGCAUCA,1.93 ratio
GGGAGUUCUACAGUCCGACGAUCACCUUUGACCAGGCCACGGGAGGGACCGCGCAGUUUGAAGCACACUCUGAUGCUCAGGCUCCCGUUCUCUUAGAUGUCACACCUGACCAGUCAAUGGUGGAUGAGGGCAUGGCUCGGGAACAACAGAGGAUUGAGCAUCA,0.0792 ratio
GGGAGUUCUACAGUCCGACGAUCUCCACGGAUGUUUAAUAUCAUCUCAGAUUCCCCAUCUCCUAUUGCUGCAAGAACACUGACAUCCGUGGCUAAAUCUGUGCAGAAUUUAGCAAAUCUUGUGGAAUUUGGAGCUAAGGAGCCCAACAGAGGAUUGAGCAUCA,0.0717 ratio
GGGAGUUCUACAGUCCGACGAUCUUUCGGAACUAUAUCAUGGACUUCCAAGUUGGGAAGGAGUUUGAGGAAGAUCUGACAGGCACCGACGACCGCAAGUGCAUGACCACUGUGAGCUGGGAUGGUGACAAACUCCAGUGUGUGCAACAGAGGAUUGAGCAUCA,0.131 ratio
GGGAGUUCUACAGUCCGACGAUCAAACUCUCUAGCAAAACCACUGCUAAGUUAUCCACUAGUGCUAAAAGAAUUCAGAAGGAGCCCGCUGAAAUAACCCUUGAUCCUCCUCCUAAUUGCAGUGCUGGGCCUAAAGGAGAUAACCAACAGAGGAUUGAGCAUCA,1.22 ratio
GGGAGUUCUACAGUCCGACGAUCUCCGCACUGGAGAACAUGCUUUUUUUCAACAGUCCUUCUGUGGGCCCCAAUGCUCCCAAGACCGAGGACUUGAAAUGGCAUUCUGCAUUCUUCAGGAAACAAAUGGGCACUUCCUUGGUUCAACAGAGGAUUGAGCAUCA,0.144 ratio

# Study 4
# Substance: PhoQ, residues 284 288 289 292 302 303 AMDMFI
# Technique: Sort-seq
# Refers to: YFP reporter
# Medium: E. coli
# Setting: PhoQ-PhoP variant library
# Added: 10 µM Mg2+
# Reference: high Mg2+ state
# Reading: higher = stronger signaling
target,fold induction
"PhoP, residues 12 14 15 18 19 TPWTL (Escherichia coli, UniProt P23836)",2.15
"PhoP, residues 12 14 15 18 19 VGHWL (Escherichia coli, UniProt P23836)",0.759
"PhoP, residues 12 14 15 18 19 NFFVT (Escherichia coli, UniProt P23836)",2
"PhoP, residues 12 14 15 18 19 LHHYF (Escherichia coli, UniProt P23836)",1.4

# Some of these lines once more (study 1):
Substitution,normalised enrichment score
L7N,0.0791
F9N,0.0208
F9G,-0.167
I4R,4.63
A3D,-0.161
L7F,-0.015
K6C,4.26
D11M,3.11
